# Published values of several laboratories.
# Protocols differ between the studies behind these lines. “And” joins repeats or separate records; there may be more than shown. ± marks the error that the study gave.
Compound,organism,assay,test system,setting,scale,quantity,value
CC1(C)SC2C(NC(=O)C(NC(=O)C3=C(O)C(Cc4ccc([N+](=O)[O-])cc4)NC3=O)c3ccccc3)C(=O)N2C1C(=O)O (stereo not shown),Escherichia coli,broth microdilution,"ATCC 35218, low-level TEM-1",no clavulanic acid,,MIC,> 200 µg/mL
Cn1c(=O)ccc2ccc(F)c(CCNC[C@H]3CN(c4cnc5c(n4)NC(=O)CO5)C(=O)O3)c21,Bacteroides fragilis,,,,,MIC50,0.06 µg/mL
CC1(C(=O)O)CCC(C(=O)Nc2ccc(Nc3ccccc3)cc2)C1(C)C (stereo not shown),Tetrahymena pyriformis and Klebsiella pneumoniae,virulence in co-culture,,,,IC50,580 nM
CCc1c([N+](=O)[O-])oc2ccc3ccccc3c12,Klebsiella aerogenes,REMA,,,,MIC90,2 µg/mL
CC1=C(C)/C(=C/c2cc(Cc3ccc(OC(F)(F)F)cc3)c(C)[nH]2)N=C1c1ccc[nH]1.Cl,Plasmodium yoelii,,CF1 mice,"oral, 25 mg/kg daily for 4 days, day 5",baseline: vehicle,parasitaemia reduction,100%
CCOC(=O)COc1ccc2ccc3oc([N+](=O)[O-])cc3c2c1,Klebsiella aerogenes,REMA,,,,MIC90,> 32 µg/mL
Nc1ncnc2c1ncn2[C@@H]1O[C@@H]2COP(=O)(O)O[C@H]3[C@@H](O)[C@H](n4cnc5c(=O)[nH]cnc54)O[C@@H]3COP(=O)(O)O[C@H]2[C@H]1O,West Nile virus,"RNA sequencing Reactome analysis, measured: G1/S Transition (R-HSA-69206)",HFF-1,"concentration not given, upregulated pathways, together with: West Nile virus infection",baseline: WNV-infected without compound,fold enrichment,3.07
Cc1ncc([N+](=O)[O-])n1CCO,Parabacteroides distasonis and Bacteroides spp.,bacterial growth,,,,MIC90,1 µg/mL
CC[C@H](C)[C@H](NC(=O)[C@H](C)NC(=O)[C@H](CCCCN)NC(=O)[C@H](CC(C)C)NC(=O)[C@H](C)NC(=O)[C@@H](NC(=O)[C@H](Cc1c[nH]cn1)NC(=O)[C@H](CC(C)C)NC(=O)[C@@H](NC(=O)[C@@H](NC(=O)[C@H](CCCCN)NC(=O)[C@H](C)NC(=O)[C@H](C)NC(=O)[C@H](CO)NC(=O)[C@H](CCCCN)NC(=O)[C@H](Cc1ccccc1)NC(=O)[C@@H](NC(=O)[C@H](CCCCN)NC(=O)[C@H](CC(C)C)NC(=O)[C@H](Cc1ccccc1)NC(=O)[C@H](CO)NC(=O)[C@H](CCCCN)NC(=O)[C@H](Cc1c[nH]c2ccccc12)NC(=O)[C@H](CCCCN)NC(C)=O)[C@@H](C)O)[C@@H](C)O)C(C)C)[C@@H](C)O)C(=O)N[C@@H](CO)C(=O)N[C@@H](CO)C(N)=O,Pseudomonas aeruginosa,,,43 strains,,MBC50,8 µg/mL
COc1ccc(N2CCN(C(CNC(=O)C3CCCCC3)c3ccc4c(c3)OCO4)CC2)cc1 (stereo not shown),Plasmodium yoelii,oxygen consumption,17XL,2 µM,,inhibition,23%
Cc1[nH]c(/C=C2\N=C(c3ccc[nH]3)C=C2OC(C)C)cc1Cc1ccc(OC(F)(F)F)cc1.Cl,Plasmodium yoelii,parasitaemia,mouse,"4-day treatment, parasitaemia day 5",,ED90,1.43 mg/kg/day
CNC(C)C1CCC(N)C(OC2C(N)CC(N)C(OC3OCC(C)(O)C(NC)C3O)C2O)O1 (stereo not shown),Acinetobacter baumannii,,"19606, biofilm","100 µg/mL, without HNP1",,survival,0% and 1.04%
COc1ccc(C[C@H](NC(=O)[C@H](C)NC(=O)CN2CCOCC2)C(=O)N[C@@H](Cc2ccccc2)C(=O)C2(C)CO2)cc1 (stereo in doubt),Plasmodium falciparum,,various incl. drug-resistant strains,,baseline: HEK-293T CC50 over IC50,selectivity ratio,> 6000
C=C(CN(C(=O)c1c(C(F)F)nn(C)c1F)C1CC1)c1ccc(Cl)cc1Cl,Fusarium oxysporum,,,1.56 mg/L,,colony diameter,10 mm and 11 mm and 13 mm and 12 mm
C/N=C(/NC)c1ccc(NC(=O)/C=C/c2ccc(/C=C/C(=O)Nc3ccc(/C(=N\C)NC)cc3)cc2)cc1,Tetrahymena pyriformis and Klebsiella pneumoniae,virulence in co-culture,,,,IC50,90 nM
COc1cccc(C(=O)NN(C(=O)c2cc(C)cc(C)c2)C(C)(C)C)c1C,Anopheles gambiae s.l.,,resistant,"tarsal contact, 367 mg/m^2, together with: RME 100 mg/m^2",baseline: control,egg number,decreased
CCCCCCCc1cc(=O)c2ccccc2[nH]1,Plasmodium yoelii,,17XL,384-well,,IC50,512 ± 38 nM
CCCCCCn1nnc2c1CCN(c1ccc(F)cc1)C2,human adenovirus 2,viral replication,HEL,,,EC50,> 100000 nM
Cc1cc(O)c(C)c(O)c1C(=O)O,Tetrahymena pyriformis and Klebsiella pneumoniae,virulence in co-culture,,,,IC50,13700 nM
N=C(N)c1ccc(OCc2ccc(-c3ccccc3)cc2COc2ccc(C(=N)N)cc2)cc1,Escherichia coli,checkerboard,BW25113 mcr-1 plasmid,"unit not given, together with: rifampicin",lower = stronger synergy,FICI,≤ 0.031
COc1cc2ccc3oc([N+](=O)[O-])cc3c2cc1OC,Klebsiella aerogenes,REMA,,,,MIC90,> 32 µg/mL
CS(=O)(=O)CCCn1c(Cn2c(=O)n(CC(F)(F)F)c3ccncc32)cc2cc(Cl)ccc21,respiratory syncytial virus,RT-qPCR,"hospitalized infants 1-24 months, nasal swab","oral, 8 mg/kg daily, day 3, cohort 6-24 months",baseline: baseline,LS mean viral load change,-1.56 log10 copies/mL
COC(=O)N[C@H](C(=O)N1CCC[C@H]1c1ncc(-c2ccc(-c3ccc(-c4cnc([C@@H]5CCCN5C(=O)[C@@H](NC(=O)OC)C(C)C)[nH]4)cc3)cc2)[nH]1)C(C)C,Hepatitis C virus,,replicon cells,"50% effect level, together with: NS5B inhibitor, ratio 2.5:1",,combination index,0.63
COc1cc(/C=N\NC(=O)c2ccc(Br)cc2)ccc1OC(=O)c1cccs1,Tetrahymena pyriformis and Klebsiella pneumoniae,virulence in co-culture,,,,IC50,3400 nM
CC[C@H](C)[C@H](NC(=O)[C@H](CC(C)C)NC(=O)[C@H](CC(C)C)NC(=O)[C@H](Cc1c[nH]cn1)NC(=O)[C@H](CCCCN)NC(=O)[C@H](Cc1c[nH]cn1)NC(=O)[C@H](CCCNC(=N)N)NC(=O)[C@@H]1CCCN1C(=O)[C@H](Cc1ccc(O)cc1)NC(=O)[C@H](CC(C)C)NC(=O)[C@H](CCC(N)=O)NC(=O)[C@@H](N)CO)C(=O)N[C@@H](CCCCN)C(=O)N[C@@H](CCCNC(=N)N)C(=O)N[C@@H](CO)C(=O)N[C@@H](CC(C)C)C(=O)N[C@@H](CCCNC(=N)N)C(=O)N[C@@H](CS)C(=O)N[C@@H](CCCNC(=N)N)C(=O)N[C@@H](CCCCN)C(=O)N[C@@H](CS)C(=O)O,Staphylococcus haemolyticus,,,,,MBC,32 µg/mL

# Some of these lines once more:
Compound,organism,assay,test system,setting,scale,quantity,value
Cc1cc(O)c(C)c(O)c1C(=O)O,Tetrahymena pyriformis and Klebsiella pneumoniae,virulence in co-culture,,,,IC50,13700 nM
COc1cccc(C(=O)NN(C(=O)c2cc(C)cc(C)c2)C(C)(C)C)c1C,Anopheles gambiae s.l.,,resistant,"tarsal contact, 367 mg/m^2, together with: RME 100 mg/m^2",baseline: control,egg number,decreased
COc1ccc(N2CCN(C(CNC(=O)C3CCCCC3)c3ccc4c(c3)OCO4)CC2)cc1 (stereo not shown),Plasmodium yoelii,oxygen consumption,17XL,2 µM,,inhibition,23%
Cc1[nH]c(/C=C2\N=C(c3ccc[nH]3)C=C2OC(C)C)cc1Cc1ccc(OC(F)(F)F)cc1.Cl,Plasmodium yoelii,parasitaemia,mouse,"4-day treatment, parasitaemia day 5",,ED90,1.43 mg/kg/day
